Measured values pooled from the literature.
Every numbered part comes from another study and shows a few of its results, in no order. Substitutions count along the parent as printed.

Sample 1 — technique: protein binding microarray; molecule type: double-stranded DNA, one strand shown; medium: in vitro; concentration: not given; reference: not given; reading: higher = stronger binding
Target: Histone acetyltransferase KAT6A, winged helix 1, GST fusion (KAT6A, Homo sapiens, UniProt Q92794, residues 1-85)
Setting: 8-mer, flanks averaged, mean of 2 arrays, mostly near background
Residues (chain): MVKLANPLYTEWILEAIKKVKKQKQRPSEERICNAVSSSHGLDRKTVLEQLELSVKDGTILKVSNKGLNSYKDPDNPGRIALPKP
| Oligonucleotide | E-score |
| --- | --- |
| ACGCACAC | -0.00742 |
| CGGTAACG | 0.314 |
| GCGGACTA | 0.155 |
| GATTCATA | -0.0331 |
| AAGACCCG | 0.14 |

Sample 2 — target: CCNB3, cyclin fold, Cln2 fusion (human); technique: yeast growth competition, sequencing; medium: yeast; setting: weak parent motif; reference: not given; reading: higher = stronger binding
Starting sequence: PKN2 docking peptide (human); VSAVQKLDFSDTM; partner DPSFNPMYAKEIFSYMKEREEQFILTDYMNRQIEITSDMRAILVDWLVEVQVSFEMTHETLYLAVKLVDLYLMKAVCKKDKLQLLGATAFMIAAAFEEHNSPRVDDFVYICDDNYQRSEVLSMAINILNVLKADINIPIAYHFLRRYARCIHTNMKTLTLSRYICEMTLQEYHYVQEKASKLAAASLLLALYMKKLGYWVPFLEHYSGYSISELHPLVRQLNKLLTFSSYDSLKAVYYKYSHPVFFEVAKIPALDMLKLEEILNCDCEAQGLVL
| Variant | normalised enrichment score |
| --- | --- |
| M13N | 0.343 |
| T12R | 0.181 |
| F9A | 0.164 |
| D8H | 0.0191 |

Sample 3 — technique: aptamer microarray, sandwich; molecule type: DNA with 2'F-ANA; medium: in vitro; concentration: 200 nM; added: Cy3 exosite-II aptamer, 400 nM; reading: higher = stronger binding
Target: Prothrombin, mature alpha-thrombin (F2, Homo sapiens, UniProt P00734)
Setting: whole 15-mer aptamer, many near background
| Oligonucleotide | mean fluorescence intensity [a.u.] |
| --- | --- |
| GGTTGGTGTGGTTGG (2'F-ANA at 3 4 6 7 9 11 12 13) | 733 |
| GGTTGGTGTGGTTGG (2'F-ANA at 1 3 5 8 12 14 15) | 45.5 |
| GGTTGGTGTGGTTGG (2'F-ANA at 2 3 6 8 12 13 15) | 809 |
| GGTTGGTGTGGTTGG (2'F-ANA at 3 4 5 8 9 10 11 12) | 60.4 |

Single results of other studies
| Substance | target | assay | system | conditions | scale | endpoint | result |
| --- | --- | --- | --- | --- | --- | --- | --- |
| PhoQ, residues 284 288 289 292 302 303 SLANKL | PhoP, residues 12 14 15 18 19 NQAHL (Escherichia coli, UniProt P23836) | Sort-seq, measured: YFP reporter | E. coli | PhoQ-PhoP variant library, added: 10 µM Mg2+ | reference: high Mg2+ state, higher = stronger signaling | fold induction | 5.58 |

For quick reference, copied from above (sample 1):
| Oligonucleotide | E-score |
| --- | --- |
| GATTCATA | -0.0331 |
| GCGGACTA | 0.155 |
